Results gathered from unrelated publications.
Parts stem from different laboratories: compare values within a part only.

Series 1
Target: Histone acetyltransferase KAT6A, winged helix 2, GST fusion (KAT6A, Homo sapiens, UniProt Q92794, residues 85-181)
Technique: protein binding microarray
Form: double-stranded DNA, one strand shown
Medium: in vitro
Concentration: not given
Setting: 8-mer, flanks averaged, mean of 2 arrays, mostly near background
Relative to: not given
Direction: higher = stronger binding
Measurement: E-score
Residues (chain): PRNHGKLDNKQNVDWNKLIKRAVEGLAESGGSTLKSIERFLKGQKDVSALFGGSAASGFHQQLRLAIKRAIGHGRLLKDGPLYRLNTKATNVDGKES
CATTACGA: -0.141
AGTGGAAA: 0.0347
AGAGCGTC: -0.0742
AACGAGCT: 0.0523
GCATTACA: -0.00225
ACCTAAAC: 0.0636
ATCATCCG: -0.047
GACCCGGA: 0.089
AGATCAAG: 0.165
ATTACATA: -0.00248
AGTCATTG: -0.267
GCAAAGGC: -0.0257
AAGTCGAG: -0.0343
CTATTGAA: -0.0956
ATCGATAC: -0.135
CCGGTGCA: 0.116
GCCTGAGA: 0.0157

Series 2
Target: Interferon regulatory factor 7, full length, phosphomimetic (IRF7, Homo sapiens, UniProt Q92985, residues 1-503, S101K/S471D/S472D/S475D/S476D/S477D/S483D/S484D/S487D)
Chain of UniProt Q92985 (whole entry, unmodified, looked up): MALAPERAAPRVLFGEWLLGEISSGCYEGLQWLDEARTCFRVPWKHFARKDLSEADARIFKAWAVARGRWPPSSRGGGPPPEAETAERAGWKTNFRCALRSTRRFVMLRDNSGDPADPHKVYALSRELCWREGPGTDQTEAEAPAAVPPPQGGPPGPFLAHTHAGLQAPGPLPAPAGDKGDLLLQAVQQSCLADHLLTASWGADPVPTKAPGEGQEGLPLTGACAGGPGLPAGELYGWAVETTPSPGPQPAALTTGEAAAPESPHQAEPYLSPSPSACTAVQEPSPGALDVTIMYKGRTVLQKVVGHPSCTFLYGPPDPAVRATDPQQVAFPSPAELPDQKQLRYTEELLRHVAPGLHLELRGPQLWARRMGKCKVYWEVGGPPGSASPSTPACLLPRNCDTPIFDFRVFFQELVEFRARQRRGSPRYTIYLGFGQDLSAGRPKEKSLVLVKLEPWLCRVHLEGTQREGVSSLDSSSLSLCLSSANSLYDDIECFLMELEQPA
Technique: protein-binding microarray
Form: double-stranded DNA, one strand shown
Medium: in vitro
Concentration: 250 nM
Setting: 60-bp whole probe
Added: salmon DNA 0.4 mg/ml
Relative to: random background probes
Direction: higher = stronger binding
Measurement: log fluorescence
Constant ends, left off below: GCCTAGCAC … GTCTTGATTCGCTTGACGCTGCTG
TTAGGTTTCTACTTTCGGTTAGTGCTA: 6.95 z-score
TTAGGGCTCCTACTGCTTTAGTGCTAG: -0.466 z-score
TTAGAACTGGGGGTTCGATTAGTGCTA: 0.934 z-score
GAAAAATCTGGAACTAACAGGTGCTAG: -0.456 z-score
TTAGATTTCGGGACTGGATTAGTGCTA: 0.562 z-score
GACTCTTCAGCACTCGGGTCGTGCTAG: 0.713 z-score
TTCTGAGCCTGGGTGGATGGGTGCTAG: -0.792 z-score
TTAGAACTGAGTTACGATTAGTGCTAG: -0.0689 z-score
GACGGAGTGCTACTGCTGACGTGCTAG: -0.667 z-score
TTAGACATCAGTATCGATTAGTGCTAG: 0.725 z-score
TTAGGTCTCCTTCTCCTTTCGTGCTAG: 0.407 z-score
GACGGCCTCGGTCTCGGGACGTGCTAG: 0.0801 z-score
TTAGGTTTCGGGTTTCGCTTAGTGCTA: 12.1 z-score
TTAGAACTGAGTCTCGATTGGTGCTAG: 1.84 z-score
TTAGGACTTCTTCTCCTTTAGTGCTAG: 0.401 z-score
AGAGTCACCCATCTCAACAAGTGCTAG: -0.177 z-score
TCTATCTGCAGACTCTCACAGTGCTAG: 0.328 z-score
GACGGTATCGGCACTGGGGACGTGCTA: -0.78 z-score
GACGGACTGGGGTATCGAGACGTGCTA: -0.689 z-score

Series 3
Target: Probable WRKY transcription factor 33, C-terminal DNA-binding domain (WRKY33, Arabidopsis thaliana, UniProt Q8S8P5, residues 346-449)
Technique: DNA-protein interaction ELISA
Form: double-stranded DNA, one strand shown
Medium: in vitro, bacterial lysate
Concentration: not given
Setting: whole dsDNA probe, crude lysate protein
Relative to: highest signal in screen
Direction: higher = stronger binding
Measurement: relative absorbance
Residues (chain): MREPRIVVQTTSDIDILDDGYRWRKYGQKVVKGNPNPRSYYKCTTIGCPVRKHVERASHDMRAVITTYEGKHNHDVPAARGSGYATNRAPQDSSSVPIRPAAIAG
AAAAAAACCCTGTGTCGGCCGATAAAAAA: 29.1 % of maximum
AAAAAAAGTTCGCGGATTTCGGCCATAAAA: 59.1 % of maximum
AAAAAATCGGGGATCCGGGCGGTTGCAAAA: 33.1 % of maximum
AAAAAATTGGCACACATGATCTCGGGAAAA: 29.2 % of maximum
AAAAAAGGACGTCTTCGGTATGAGTGAAAA: 77.9 % of maximum
AAAAAATTCCGGCTTGACGCTGCATAAAAA: 32.1 % of maximum
AAAAAATAGCGACTTCGACTCTCAGTAAAA: 42.8 % of maximum
AAAAAAGCTTCGCGCCAGCGGGAAAA: 43.6 % of maximum
AAAAAAGGGTCGCTGTGAGCTCATGAAAAA: 36.9 % of maximum
AAAAAAACTTTCTATTCTGGATAAGTAAAA: 59.6 % of maximum
AAAAAACCAACTCTCTTTCGGACTATAAAA: 53.8 % of maximum
AAAAAATTTGTTCGGGCTCATAACTGAAAA: 31.2 % of maximum
AAAAAATCTTCACCTCACTTCGGTTTAAAA: 35.6 % of maximum
AAAAAACCGTATGTATATCTATATGTAAAA: 34.9 % of maximum
AAAAAACTTGCTCCTCCGTTTTACTCAAAA: 58.4 % of maximum
AAAAAAGGCCTTCGCTCGTGTTTACGAAAA: 28.7 % of maximum
AAAAAAGCTAGTGCTGCCACCAACGTAAAA: 38.4 % of maximum

Series 4
Target: Sal-like protein 4, full length isoform B (SALL4, Homo sapiens, UniProt Q9UJQ4-2, residues 1-616)
Technique: universal PBM
Form: double-stranded DNA, one strand shown
Medium: in vitro
Concentration: not given
Setting: 8-mer, flanks averaged, mean of replicates
Direction: higher = stronger binding
Measurement: E-score
Residues (chain): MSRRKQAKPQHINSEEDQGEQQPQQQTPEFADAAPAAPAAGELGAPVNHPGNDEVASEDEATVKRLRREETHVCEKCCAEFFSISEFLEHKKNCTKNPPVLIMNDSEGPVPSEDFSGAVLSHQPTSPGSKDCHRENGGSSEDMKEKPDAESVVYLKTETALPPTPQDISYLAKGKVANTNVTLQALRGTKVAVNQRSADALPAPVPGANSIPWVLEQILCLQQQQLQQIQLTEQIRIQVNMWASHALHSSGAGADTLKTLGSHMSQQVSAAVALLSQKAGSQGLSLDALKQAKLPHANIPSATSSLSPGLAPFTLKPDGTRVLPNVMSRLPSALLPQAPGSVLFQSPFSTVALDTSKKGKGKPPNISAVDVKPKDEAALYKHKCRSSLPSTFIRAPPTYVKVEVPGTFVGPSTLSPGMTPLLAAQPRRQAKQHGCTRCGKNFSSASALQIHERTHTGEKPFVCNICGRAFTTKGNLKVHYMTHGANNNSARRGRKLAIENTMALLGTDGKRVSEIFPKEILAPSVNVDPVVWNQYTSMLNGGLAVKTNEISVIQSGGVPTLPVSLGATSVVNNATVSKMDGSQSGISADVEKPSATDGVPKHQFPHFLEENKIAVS
CCCCCTGA: -0.295
ACCCTTGC: -0.172
GGTTCATA: 0.281
CATATCGA: 0.0338
CCGTCGCA: -0.167
CTGAGGAC: -0.0711
AACCGTGA: -0.0254
CCCCAACG: -0.204
AAACGTTT: 0.224
CGCGCCGA: -0.29
CAAAACTC: 0.0896
ATAAAACC: 0.111
ATTCCGTC: -0.0188
ACATCTCT: -0.0005
AACCGGTC: -0.108
CAGAGGCC: -0.201
GTGCCGCA: -0.132
CACTCGAC: -0.16
CAGTCCGA: -0.191
CATTGCAA: 0.111
CGAACCCC: -0.376
CAGCAGGA: -0.105
CTACCCAC: -0.208
ATGACCAA: 0.2
CGAGTTTC: -0.111

Series 5
Target: RNA binding protein fox-1 homolog 2, RRM domain, GST-SBP tag (RBFOX2, Homo sapiens, UniProt O43251-10, residues 100-194)
Technique: RNA Bind-n-Seq
Form: RNA
Medium: in vitro
Concentration: 365 nM
Setting: natural RNA segment, single round, ends assumed
Relative to: no-protein control
Direction: higher = stronger binding
Measurement: RBNS enrichment (R)
Constant ends, left off below: GGGAGUUCUACAGUCCGACGAUC … UGGAAUUCUCGGGUGCCAA
Residues (chain): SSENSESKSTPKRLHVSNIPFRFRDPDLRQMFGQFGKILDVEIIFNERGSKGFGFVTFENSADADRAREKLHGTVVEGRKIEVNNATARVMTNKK
UUUGAAAGAUUUUUGUAAAUUCUUUUAACACUGAUGUUUCAGCCUCGUCUUUGUUUCAGUUAAGCUCAAUGGCGAACAUGGGAACCACCUUUCGCCUUCCCUGGGGGAGA: 0.19
GUAGGUGCUCAACAAAUUUAUUGAAUGAAUGAGUGAAUGGAAAAACUGGGAGAGUCAAAAGUGAGCAGAAGCUCUCCAUUUCUACUUCUGUCACAAACCACAUUAAAUUG: 1.33
GCUUAGAUACCCAUAAAAUGCAAAAGGCACAGGUGUGUUGAAUAUUCAGAAGUCAAAGAAAUUACAUGUUUGGGAUUGAUGAGUCUUUAGGGCAGAAGCCAGCUGCAGAA: 0.644
CCAGACGAGGUCCUCACAGGAGAAGGACAGCUCUUCCCCACCCUGGGAUCUCAGGAGGGCAGCCACGGAGUGGGGAGGCCCCAGAUGCGCUGUGCCAAAGCCAGGUCCGA: 0.444
UAGAGCAGUGCUAGCUAGCAUUACUGGCUUCCUGCUACUUUUUCGUUUUUUUAAAUUUUUUAUUCUGAUUGCUGUAUUAUAUUGGGGAUGUUCUAAACAACCAAACUAAA: 0.582
AGCUGCCUCUUCAGUGCAAAGAUGAAAAGGAACAUGCUGCUGACGGCCCCCAGCACCAAAGCUUAGCCAAGGCAGAGGCGGAUGCCUCUGGAAAUCUAACCAAAGAGUCC: 0.238
AGCUGGCUGUAAUGCCUUAUCUCUUCUGGAAAGACGCUGGCUCAGACCGUGGAUUUGGCUUAGCACUGUUAAGCAUACAGGUAUCUACAGGCCUGGUGUGGUUUGUUCUG: 0.375
AUGGCCACUUGGGCCUGACUCUAAGUUUCUGCCCCAGUGAAACAGACCAUGUGCAAUUCCCAGGUAAGGGUACCUCAGACCCUUCCUGUCCAUGUAGUUCCGACUGCAGC: 0.202

For quick reference, copied from above (series 5):
CCAGACGAGGUCCUCACAGGAGAAGGACAGCUCUUCCCCACCCUGGGAUCUCAGGAGGGCAGCCACGGAGUGGGGAGGCCCCAGAUGCGCUGUGCCAAAGCCAGGUCCGA: 0.444
AUGGCCACUUGGGCCUGACUCUAAGUUUCUGCCCCAGUGAAACAGACCAUGUGCAAUUCCCAGGUAAGGGUACCUCAGACCCUUCCUGUCCAUGUAGUUCCGACUGCAGC: 0.202
UUUGAAAGAUUUUUGUAAAUUCUUUUAACACUGAUGUUUCAGCCUCGUCUUUGUUUCAGUUAAGCUCAAUGGCGAACAUGGGAACCACCUUUCGCCUUCCCUGGGGGAGA: 0.19
AGCUGCCUCUUCAGUGCAAAGAUGAAAAGGAACAUGCUGCUGACGGCCCCCAGCACCAAAGCUUAGCCAAGGCAGAGGCGGAUGCCUCUGGAAAUCUAACCAAAGAGUCC: 0.238
GUAGGUGCUCAACAAAUUUAUUGAAUGAAUGAGUGAAUGGAAAAACUGGGAGAGUCAAAAGUGAGCAGAAGCUCUCCAUUUCUACUUCUGUCACAAACCACAUUAAAUUG: 1.33
AGCUGGCUGUAAUGCCUUAUCUCUUCUGGAAAGACGCUGGCUCAGACCGUGGAUUUGGCUUAGCACUGUUAAGCAUACAGGUAUCUACAGGCCUGGUGUGGUUUGUUCUG: 0.375
GCUUAGAUACCCAUAAAAUGCAAAAGGCACAGGUGUGUUGAAUAUUCAGAAGUCAAAGAAAUUACAUGUUUGGGAUUGAUGAGUCUUUAGGGCAGAAGCCAGCUGCAGAA: 0.644
UAGAGCAGUGCUAGCUAGCAUUACUGGCUUCCUGCUACUUUUUCGUUUUUUUAAAUUUUUUAUUCUGAUUGCUGUAUUAUAUUGGGGAUGUUCUAAACAACCAAACUAAA: 0.582
